Measurements from different studies.
Each line is one published result; not all experiments were run side by side. Several values in a cell are separate wells, animals, samples, runs or records. Numbers after ± are the reported error.
MAL12: Alpha-glucosidase MAL12 (MAL12, Saccharomyces cerevisiae S288c, UniProt P53341)
Chain of UniProt P53341 (whole entry, looked up): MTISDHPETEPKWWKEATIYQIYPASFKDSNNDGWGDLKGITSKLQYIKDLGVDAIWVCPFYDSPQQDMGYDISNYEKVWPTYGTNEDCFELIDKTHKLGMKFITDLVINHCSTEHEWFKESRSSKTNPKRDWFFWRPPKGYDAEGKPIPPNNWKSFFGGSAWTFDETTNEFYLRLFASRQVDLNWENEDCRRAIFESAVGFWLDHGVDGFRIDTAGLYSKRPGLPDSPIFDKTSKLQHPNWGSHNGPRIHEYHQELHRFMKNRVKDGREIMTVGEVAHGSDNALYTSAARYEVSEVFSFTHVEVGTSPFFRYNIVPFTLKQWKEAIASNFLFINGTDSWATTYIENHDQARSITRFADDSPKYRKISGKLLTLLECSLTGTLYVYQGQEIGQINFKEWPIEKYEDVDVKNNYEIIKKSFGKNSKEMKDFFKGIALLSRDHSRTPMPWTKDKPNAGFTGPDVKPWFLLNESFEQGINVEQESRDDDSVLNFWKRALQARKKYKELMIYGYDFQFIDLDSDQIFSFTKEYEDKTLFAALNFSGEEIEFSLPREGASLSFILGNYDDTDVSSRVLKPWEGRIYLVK
OPRM1: Mu-type opioid receptor (OPRM1, Homo sapiens, UniProt P35372)
Chain of UniProt P35372 (whole entry, looked up): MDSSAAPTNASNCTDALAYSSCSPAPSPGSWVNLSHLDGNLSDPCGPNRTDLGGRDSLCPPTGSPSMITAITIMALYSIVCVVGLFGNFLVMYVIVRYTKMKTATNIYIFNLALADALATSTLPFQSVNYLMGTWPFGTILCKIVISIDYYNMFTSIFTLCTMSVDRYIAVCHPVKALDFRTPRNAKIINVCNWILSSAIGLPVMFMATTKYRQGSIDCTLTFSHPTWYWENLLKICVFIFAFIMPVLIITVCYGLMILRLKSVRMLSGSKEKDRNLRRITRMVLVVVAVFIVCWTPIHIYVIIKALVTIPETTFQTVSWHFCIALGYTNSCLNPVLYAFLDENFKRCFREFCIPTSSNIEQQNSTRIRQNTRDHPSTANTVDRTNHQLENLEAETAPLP
AKR1C3: Aldo-keto reductase family 1 member C3 (AKR1C3, Homo sapiens, UniProt P42330)
Chain of UniProt P42330 (whole entry, looked up): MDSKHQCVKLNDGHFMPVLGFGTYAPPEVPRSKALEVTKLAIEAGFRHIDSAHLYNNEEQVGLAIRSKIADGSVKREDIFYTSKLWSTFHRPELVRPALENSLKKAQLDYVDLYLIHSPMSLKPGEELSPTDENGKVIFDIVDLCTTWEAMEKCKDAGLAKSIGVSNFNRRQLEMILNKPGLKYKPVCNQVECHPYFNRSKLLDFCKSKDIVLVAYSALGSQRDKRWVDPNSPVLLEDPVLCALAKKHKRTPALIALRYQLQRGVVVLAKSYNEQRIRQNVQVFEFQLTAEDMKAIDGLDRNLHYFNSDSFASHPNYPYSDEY
SLC22A5: Organic cation/carnitine transporter 2 (SLC22A5, Homo sapiens, UniProt O76082)
Chain of UniProt O76082 (whole entry, looked up): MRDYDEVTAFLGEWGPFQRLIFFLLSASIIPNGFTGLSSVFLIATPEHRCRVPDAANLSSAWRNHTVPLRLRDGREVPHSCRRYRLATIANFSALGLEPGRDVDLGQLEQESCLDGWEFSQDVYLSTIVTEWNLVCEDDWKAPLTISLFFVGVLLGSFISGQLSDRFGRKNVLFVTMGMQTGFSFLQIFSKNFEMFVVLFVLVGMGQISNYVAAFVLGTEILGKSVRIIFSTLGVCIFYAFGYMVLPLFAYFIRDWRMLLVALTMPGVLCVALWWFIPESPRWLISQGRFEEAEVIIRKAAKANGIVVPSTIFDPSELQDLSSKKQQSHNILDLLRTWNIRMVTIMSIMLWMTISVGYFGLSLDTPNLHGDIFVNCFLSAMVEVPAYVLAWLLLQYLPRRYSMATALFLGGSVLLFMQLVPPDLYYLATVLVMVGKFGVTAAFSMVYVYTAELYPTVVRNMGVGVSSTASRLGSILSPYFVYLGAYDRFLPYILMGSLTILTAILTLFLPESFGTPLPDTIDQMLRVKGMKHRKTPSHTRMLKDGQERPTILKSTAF
Tubulin alpha-1B chain/TUBB2B colchicine site: Tubulin alpha-1B chain/TUBB2B, colchicine site (Bos taurus, UniProt P81947+Q6B856)
Chain of UniProt Q6B856 (whole entry, looked up): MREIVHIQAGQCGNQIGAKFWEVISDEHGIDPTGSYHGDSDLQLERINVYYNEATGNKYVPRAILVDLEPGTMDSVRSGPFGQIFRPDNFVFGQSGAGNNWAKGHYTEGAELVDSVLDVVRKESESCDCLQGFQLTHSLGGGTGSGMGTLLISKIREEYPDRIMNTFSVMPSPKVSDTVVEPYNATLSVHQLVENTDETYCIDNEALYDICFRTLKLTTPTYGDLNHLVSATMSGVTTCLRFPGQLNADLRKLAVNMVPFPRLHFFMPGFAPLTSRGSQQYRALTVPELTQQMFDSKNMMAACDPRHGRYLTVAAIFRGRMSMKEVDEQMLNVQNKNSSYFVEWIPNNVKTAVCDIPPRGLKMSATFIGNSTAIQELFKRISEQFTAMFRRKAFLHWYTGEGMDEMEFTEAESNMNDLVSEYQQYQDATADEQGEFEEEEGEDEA
Chain of UniProt P81947 (whole entry, looked up): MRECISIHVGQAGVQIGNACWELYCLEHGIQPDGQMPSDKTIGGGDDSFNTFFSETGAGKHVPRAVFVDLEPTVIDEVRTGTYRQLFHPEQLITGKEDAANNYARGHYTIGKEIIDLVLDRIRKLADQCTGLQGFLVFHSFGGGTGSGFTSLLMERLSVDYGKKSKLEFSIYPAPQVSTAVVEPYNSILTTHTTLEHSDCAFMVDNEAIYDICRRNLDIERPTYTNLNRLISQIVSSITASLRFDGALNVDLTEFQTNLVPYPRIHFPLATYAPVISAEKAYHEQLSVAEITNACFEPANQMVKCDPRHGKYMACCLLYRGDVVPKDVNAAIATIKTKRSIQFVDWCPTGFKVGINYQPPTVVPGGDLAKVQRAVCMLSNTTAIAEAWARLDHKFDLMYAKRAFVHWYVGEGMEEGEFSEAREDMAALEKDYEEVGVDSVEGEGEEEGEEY
PARP16: Protein mono-ADP-ribosyltransferase PARP16 (PARP16, Homo sapiens, UniProt Q8N5Y8)
Chain of UniProt Q8N5Y8 (whole entry, looked up): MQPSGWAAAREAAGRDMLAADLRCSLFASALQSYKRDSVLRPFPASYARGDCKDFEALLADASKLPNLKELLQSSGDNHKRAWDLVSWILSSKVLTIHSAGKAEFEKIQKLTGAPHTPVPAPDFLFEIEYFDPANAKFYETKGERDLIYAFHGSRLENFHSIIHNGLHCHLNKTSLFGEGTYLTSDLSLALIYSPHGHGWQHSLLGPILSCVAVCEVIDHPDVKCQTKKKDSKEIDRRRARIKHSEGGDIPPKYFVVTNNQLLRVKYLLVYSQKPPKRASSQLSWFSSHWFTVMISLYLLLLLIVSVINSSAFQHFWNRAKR
Chain of UniProt P21397 (whole entry, looked up): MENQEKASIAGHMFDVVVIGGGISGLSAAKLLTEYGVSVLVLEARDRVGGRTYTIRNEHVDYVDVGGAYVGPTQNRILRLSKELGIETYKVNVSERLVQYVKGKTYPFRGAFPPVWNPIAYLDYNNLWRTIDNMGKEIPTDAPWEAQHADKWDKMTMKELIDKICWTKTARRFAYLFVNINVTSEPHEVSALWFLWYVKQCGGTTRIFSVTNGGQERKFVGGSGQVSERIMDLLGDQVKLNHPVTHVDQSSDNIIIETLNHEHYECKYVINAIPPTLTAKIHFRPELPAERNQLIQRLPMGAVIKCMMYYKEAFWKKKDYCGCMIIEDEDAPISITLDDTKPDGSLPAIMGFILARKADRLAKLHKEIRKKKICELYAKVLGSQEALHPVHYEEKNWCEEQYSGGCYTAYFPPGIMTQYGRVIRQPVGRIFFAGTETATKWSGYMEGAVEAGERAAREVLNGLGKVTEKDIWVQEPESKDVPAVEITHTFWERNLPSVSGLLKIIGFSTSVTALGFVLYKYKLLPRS
Chain of UniProt P08424 (whole entry, looked up): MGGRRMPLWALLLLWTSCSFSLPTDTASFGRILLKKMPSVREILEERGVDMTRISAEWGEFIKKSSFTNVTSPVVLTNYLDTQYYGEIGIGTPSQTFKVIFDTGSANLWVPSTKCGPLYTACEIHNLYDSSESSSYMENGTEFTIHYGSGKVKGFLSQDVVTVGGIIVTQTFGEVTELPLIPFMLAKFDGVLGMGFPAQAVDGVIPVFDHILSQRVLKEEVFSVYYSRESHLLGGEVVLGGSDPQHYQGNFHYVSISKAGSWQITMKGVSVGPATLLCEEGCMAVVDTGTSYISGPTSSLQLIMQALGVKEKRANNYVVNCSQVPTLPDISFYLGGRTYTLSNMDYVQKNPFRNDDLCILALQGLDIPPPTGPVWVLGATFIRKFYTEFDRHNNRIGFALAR

| SMILES | tested on | assay | test system | setting | endpoint | result |
| --- | --- | --- | --- | --- | --- | --- |
| COc1cc(-c2cc(=O)c3ccc(O)c(OC)c3o2)cc(O)c1OC | MAL12 | enzyme activity, inhibitor, absorbance | – | 25 µM | inhibition | 20% |
| CC(C)/C=C/c1c(O)cc(/C=C/c2ccc(O)c(O)c2)cc1O | OPRM1 | radioligand binding | – | 10 µM, 60 min, with: [3H]DAMGO | inhibition | -80% |
| COc1ccc(-c2cc(=O)c3c(O)cc(OC)cc3o2)cc1 | MAL12 | enzyme activity, inhibitor, absorbance | – | 50 µM | inhibition | 3.7% |
| C[C@@]12CC[C@@H]3c4cc(I)c(O)c(Cl)c4CC[C@H]3[C@@H]1CCC2=O | AKR1C3 | enzyme activity, inhibitor, absorbance | – | 10 µM, pH 9 | inhibition | 50% |
| COCCCOc1cc(C[C@@H](C[C@H](N)[C@@H](O)C[C@H](C(=O)NCC(C)(C)C(N)=O)C(C)C)C(C)C)ccc1OC | Renin (Rattus norvegicus, UniProt P08424) | angiotensin I formation | NRK-52E nuclear lysate | 1 µM, with: trypsin-activated prorenin | inhibition | 93% |
| C[C@@]12CC[C@@H]3c4cc(Cl)c(O)c(Br)c4CC[C@H]3[C@@H]1CCC2=O | AKR1C3 | enzyme activity, inhibitor, absorbance | – | 100 µM, pH 9 | inhibition | 88% |
| CC[C@]1(O)C[C@H]2CN(CCc3c([nH]c4ccccc34)[C@@](C(=O)OC)(c3cc4c(cc3OC)N(C=O)[C@H]3[C@@](O)(C(=O)OC)[C@H](OC(C)=O)[C@]5(CC)C=CCN6CC[C@]43[C@@H]65)C2)C1 | SLC22A5 | transporter uptake, inhibitor | – | 100 µM | inhibition | 75% |
| CCOc1ccc(-c2sc(N)nc2-c2cc(OC)c(OC)c(OC)c2)cc1 | Tubulin alpha-1B chain/TUBB2B colchicine site | [3H]colchicine binding | – | 1 5 5 µM | inhibition | 95 ± 0.71% |
| COc1c(-c2ccc(O)cc2)oc2c(OC)c(O)cc(O)c2c1=O | MAL12 | enzyme activity, inhibitor, absorbance | – | 2.5 µM | inhibition | 40.1% |
| Oc1ccc(/C=C/c2cccc(O)c2)cc1 | OPRM1 | radioligand binding | – | 10 µM, 60 min, with: [3H]DAMGO | inhibition | 16.7% |
| O=C(O)c1ccccc1Nc1cccc(C(F)(F)F)c1 | Trpm8 (Mus musculus, UniProt Q8R4D5) | ion current, two-electrode voltage clamp | Xenopus oocytes | 100 µM, +100 mV, with: menthol 100 µM | inhibition | 16% |
| COc1cc(-c2nc(N)sc2-c2ccc(C)cc2)cc(OC)c1OC | Tubulin alpha-1B chain/TUBB2B colchicine site | [3H]colchicine binding | – | 1 5 5 µM | inhibition | 88 ± 0.71% |
| Cc1cccc(Cn2cc(COc3cc(-n4nc(C(C)(C)C)oc4=O)c(Cl)cc3Cl)nn2)c1 | Toxoplasma gondii | intracellular parasite growth, luminescence | HFF, wild type, NanoLuc reporter | 96 h | IC50 | < 2500 nM and 1800 nM |
| Cc1ccc(O)c(C=NNC(=S)NCc2ccccc2)c1 | AKR1B1 (Homo sapiens, UniProt P15121) | enzyme activity, inhibitor, absorbance | – | 100 µM | inhibition | < 50% |
| O=C1CCNC(=O)c2cc(Cl)c(Cl)cc21 | PARP16 | enzyme activity, inhibitor | – | 10 µM | inhibition | 0% |
| COc1ccc(-c2cc(=O)c3ccc(O)cc3o2)cc1 | MAL12 | enzyme activity, inhibitor, absorbance | – | 250 µM | inhibition | 85.1% |
| CC(C)(C)c1nn(-c2cc(OCc3cn(Cc4ccccn4)nn3)c(Cl)cc2Cl)c(=O)o1 | Toxoplasma gondii | intracellular parasite growth, luminescence | HFF, wild type, NanoLuc reporter | 96 h | IC50 | 13500 ± 1600 nM |
| COc1cc2oc(-c3ccc(O)cc3)cc(=O)c2c(O)c1OC | MAL12 | enzyme activity, inhibitor, absorbance | – | 10 µM | inhibition | 23.4% |
| C[C@@]12CC[C@@H]3c4cc(I)c(O)c(Br)c4CC[C@H]3[C@@H]1CCC2=O | AKR1C3 | enzyme activity, inhibitor, absorbance | – | 10 µM, pH 9 | inhibition | 40% |
| COc1c(O)ccc2c(=O)cc(-c3ccccc3)oc12 | MAL12 | enzyme activity, inhibitor | – | 250 µM | inhibition | > 99% |
| C[C@@]12CC[C@@H]3c4cc(Br)c(O)c(I)c4CC[C@H]3[C@@H]1CCC2=O | AKR1C3 | enzyme activity, inhibitor, absorbance | – | 100 µM, pH 9 | inhibition | 88.9% |
| O=C1CCCc2ccc(F)cc2N1 | PARP16 | enzyme activity, inhibitor | – | 10 µM | inhibition | 93.5% |
| C[C@@]12CC[C@@H]3c4cc(Br)c(O)c(Cl)c4CC[C@H]3[C@@H]1CCC2=O | AKR1C3 | enzyme activity, inhibitor, absorbance | – | 10 µM, pH 9 | inhibition | 50% |
| C[N+](C)(C)C[C@@H](O)CC(=O)[O-] | SLC22A5 | transporter uptake, inhibitor | – | 10 µM | inhibition | 36.4% |
| COc1c(O)cc(O)c2c(=O)cc(-c3ccc(O)cc3)oc12 | MAL12 | enzyme activity, inhibitor, absorbance | – | 10 µM | inhibition | 20.5% |
| COc1ccc2sc3c(c2c1)-c1c(OC)cccc1C3=O | DYRK1A (Homo sapiens, UniProt Q13627) | enzyme activity, inhibitor, radiometric | – | 1 µM | inhibition | 25 to 32% |
| O=S1(=O)c2ccc(F)cc2Oc2cc(OCC(F)(F)F)ccc21 | MAOA (Homo sapiens, UniProt P21397) | [11C]clorgyline binding, PET | human | oral, 60 mg single dose, 2 h | inhibition | 46.8 ± 22.6% |
| COc1cc2oc(-c3ccccc3)cc(=O)c2c(OC)c1O | MAL12 | enzyme activity, inhibitor, absorbance | – | 50 µM | inhibition | 21.1% |

Some of these lines once more:
| SMILES | tested on | assay | test system | setting | endpoint | result |
| --- | --- | --- | --- | --- | --- | --- |
| COc1cc2oc(-c3ccc(O)cc3)cc(=O)c2c(O)c1OC | MAL12 | enzyme activity, inhibitor, absorbance | – | 10 µM | inhibition | 23.4% |
| C[C@@]12CC[C@@H]3c4cc(I)c(O)c(Br)c4CC[C@H]3[C@@H]1CCC2=O | AKR1C3 | enzyme activity, inhibitor, absorbance | – | 10 µM, pH 9 | inhibition | 40% |
| COc1c(O)ccc2c(=O)cc(-c3ccccc3)oc12 | MAL12 | enzyme activity, inhibitor | – | 250 µM | inhibition | > 99% |
| C[C@@]12CC[C@@H]3c4cc(Br)c(O)c(I)c4CC[C@H]3[C@@H]1CCC2=O | AKR1C3 | enzyme activity, inhibitor, absorbance | – | 100 µM, pH 9 | inhibition | 88.9% |
